Results collected from several papers.
Lines come from different studies, so protocols differ. Numbers after ± are the reported error. Values after ≈ are worked out from the molar mass of the structure shown.
Sequence of UniProt Q15858 (whole entry, looked up): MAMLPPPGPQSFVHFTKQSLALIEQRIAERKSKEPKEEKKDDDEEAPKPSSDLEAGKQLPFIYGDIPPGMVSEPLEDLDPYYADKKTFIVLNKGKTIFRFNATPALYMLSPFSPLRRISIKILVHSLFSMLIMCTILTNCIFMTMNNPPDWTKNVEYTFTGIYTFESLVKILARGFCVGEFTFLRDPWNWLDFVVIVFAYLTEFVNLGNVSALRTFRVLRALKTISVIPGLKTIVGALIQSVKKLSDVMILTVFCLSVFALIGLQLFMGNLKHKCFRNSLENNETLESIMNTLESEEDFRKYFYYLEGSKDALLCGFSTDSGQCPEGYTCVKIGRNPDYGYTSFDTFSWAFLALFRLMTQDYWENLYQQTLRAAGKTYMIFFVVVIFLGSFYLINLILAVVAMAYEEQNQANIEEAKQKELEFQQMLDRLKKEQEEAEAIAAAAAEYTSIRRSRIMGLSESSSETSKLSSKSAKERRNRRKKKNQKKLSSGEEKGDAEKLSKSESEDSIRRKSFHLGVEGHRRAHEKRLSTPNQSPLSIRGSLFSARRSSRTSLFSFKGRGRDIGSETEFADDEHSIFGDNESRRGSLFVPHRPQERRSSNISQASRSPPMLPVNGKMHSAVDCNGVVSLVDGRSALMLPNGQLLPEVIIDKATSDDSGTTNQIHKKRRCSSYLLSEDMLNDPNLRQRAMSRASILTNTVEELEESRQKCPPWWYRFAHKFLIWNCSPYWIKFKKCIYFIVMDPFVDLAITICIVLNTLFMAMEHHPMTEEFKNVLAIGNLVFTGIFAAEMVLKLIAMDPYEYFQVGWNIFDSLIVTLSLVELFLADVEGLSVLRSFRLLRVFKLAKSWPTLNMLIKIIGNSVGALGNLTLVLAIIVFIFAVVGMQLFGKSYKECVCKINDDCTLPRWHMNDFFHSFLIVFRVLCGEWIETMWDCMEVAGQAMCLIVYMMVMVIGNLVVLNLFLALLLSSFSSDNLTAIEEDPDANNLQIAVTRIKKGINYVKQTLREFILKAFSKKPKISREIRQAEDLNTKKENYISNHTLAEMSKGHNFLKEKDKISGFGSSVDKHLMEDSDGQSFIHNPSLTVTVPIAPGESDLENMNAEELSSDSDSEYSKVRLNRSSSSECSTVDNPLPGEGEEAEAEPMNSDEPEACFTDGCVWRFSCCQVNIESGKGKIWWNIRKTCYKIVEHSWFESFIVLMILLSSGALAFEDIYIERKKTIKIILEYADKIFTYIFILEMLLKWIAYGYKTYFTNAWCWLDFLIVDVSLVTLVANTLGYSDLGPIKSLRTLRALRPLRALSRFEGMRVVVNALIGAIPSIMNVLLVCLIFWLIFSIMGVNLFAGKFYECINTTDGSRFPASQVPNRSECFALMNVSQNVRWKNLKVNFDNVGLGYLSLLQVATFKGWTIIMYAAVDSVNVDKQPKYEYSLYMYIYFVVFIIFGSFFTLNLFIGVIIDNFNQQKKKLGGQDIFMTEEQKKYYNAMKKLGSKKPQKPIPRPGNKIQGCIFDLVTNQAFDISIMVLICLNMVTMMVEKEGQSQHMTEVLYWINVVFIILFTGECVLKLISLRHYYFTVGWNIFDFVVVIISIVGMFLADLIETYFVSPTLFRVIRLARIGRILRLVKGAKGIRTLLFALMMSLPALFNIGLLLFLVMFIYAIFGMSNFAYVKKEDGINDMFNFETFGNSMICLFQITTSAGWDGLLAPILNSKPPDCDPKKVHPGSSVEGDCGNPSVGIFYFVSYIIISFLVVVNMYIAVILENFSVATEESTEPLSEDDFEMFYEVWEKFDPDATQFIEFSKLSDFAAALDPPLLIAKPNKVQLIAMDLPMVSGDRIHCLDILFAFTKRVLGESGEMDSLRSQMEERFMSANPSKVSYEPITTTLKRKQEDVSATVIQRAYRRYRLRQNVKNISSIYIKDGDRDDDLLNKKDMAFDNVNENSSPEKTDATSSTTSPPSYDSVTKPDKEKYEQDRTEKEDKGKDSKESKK

SMILES = Cc1cc(/C=C/C#N)cc(C)c1-n1cnc2cnc(Nc3ccc(C#N)cc3)nc21; target or system = HIV-1; test = viral replication, single-round infection; system = RT mutant E138K; quantity = EC50; result = 2.1 ± 0.1 nM
SMILES = CC[C@H](C)[C@H](NC(=O)[C@H](CCCN)NC(=O)[C@H](CC(=O)O)NC(=O)[C@H](CC(C)C)NC(=O)C(C)(CC(C)C)NC(=O)[C@@H](NC(=O)[C@H](CO)NC(=O)[C@H](Cc1ccc(O)cc1)NC(=O)[C@H](CC(=O)O)NC(=O)[C@H](CO)NC(=O)[C@@H](NC(=O)[C@H](Cc1ccccc1)NC(=O)[C@@H](NC(=O)CNC(=O)[C@H](CCC(=O)O)NC(=O)C(C)(C)NC(=O)[C@@H](N)Cc1ccc(O)cc1)[C@@H](C)O)[C@@H](C)CC)[C@@H](C)CC)C(=O)N[C@@H](Cc1c[nH]cn1)C(=O)N[C@@H](CCC(N)=O)C(=O)NC(C)(C)C(=O)N[C@@H](CC(=O)O)C(=O)N[C@@H](Cc1ccccc1)C(=O)N[C@H](C(=O)N[C@@H](CCC(=O)O)C(=O)N[C@@H](Cc1ccc(O)cc1)C(=O)N[C@@H](CCCCNC(=O)COCCOCCNC(=O)COCCOCCNC(=O)CC[C@H](NC(=O)CCCCCCCCCCCCCCCCCCC(=O)O)C(=O)O)C(=O)N[C@@H](CC(C)C)C(=O)N[C@@H](CCC(=O)O)C(=O)NCC(=O)NCC(=O)N1CCC[C@H]1C(=O)N[C@@H](CO)C(=O)N[C@@H](CO)C(=O)NCC(=O)N[C@@H](C)C(=O)N1CCC[C@H]1C(=O)N1CCC[C@H]1C(=O)N1CCC[C@H]1C(=O)N[C@@H](CO)C(N)=O)C(C)C (stereo partly shown); system = human; conditions = subcutaneous, 0.3 to 25 mg single dose, median; quantity = tmax; result = 12 to 84 h
SMILES = CCCCCCCCCCCCCCCC(=O)N[C@@H](CCC(=O)NCCOCCOCCC(=O)NCCOCCOCCC(=O)NCCCC[C@H](NC(=O)[C@H](CC(=O)O)NC(=O)[C@H](CC(C)C)NC(=O)[C@H](Cc1ccc(O)cc1)NC(=O)[C@H](CCCCN)NC(=O)[C@H](CO)NC(=O)[C@H](Cc1ccc(O)cc1)NC(=O)[C@H](CC(=O)O)NC(=O)[C@H](CO)NC(=O)[C@@H](NC(=O)[C@H](Cc1ccccc1)NC(=O)[C@@H](NC(=O)CNC(=O)[C@H](CCC(N)=O)NC(=O)[C@@H](CO)NC(=O)[C@@H](N)Cc1c[nH]cn1)[C@@H](C)O)[C@@H](C)O)C(=O)N[C@@H](CCCNC(=N)N)C(=O)N[C@@H](CCCNC(=N)N)C(=O)N[C@@H](C)C(=O)N[C@@H](CCC(N)=O)C(=O)N[C@@H](CC(=O)O)C(=O)N[C@@H](Cc1ccccc1)C(=O)N[C@H](C(=O)N[C@@H](CCC(N)=O)C(=O)N[C@@H](Cc1c[nH]c2ccccc12)C(=O)N[C@@H](CC(C)C)C(=O)N[C@@H](CC(C)C)C(=O)N[C@@H](CC(N)=O)C(=O)N[C@H](C(=O)NCC(=O)NCC(=O)N1CCC[C@H]1C(=O)N[C@@H](CO)C(=O)N[C@@H](CO)C(=O)NCC(=O)N[C@@H](C)C(=O)N1CCC[C@H]1C(=O)N1CCC[C@H]1C(=O)N1CCC[C@H]1C(=O)N[C@@H](CO)C(N)=O)[C@@H](C)O)C(C)C)C(=O)O; system = Sprague-Dawley rat, male; conditions = subcutaneous, 500 µg/kg once daily, 14 days; quantity = total cholesterol; result = 0.45 ± 0.1 mmol/L
SMILES = CC[C@H](C)[C@H](NC(=O)[C@H](CCCCN)NC(=O)[C@H](CCCCN)NC(=O)[C@H](CC(C)C)NC(=O)[C@H](Cc1c[nH]c2ccccc12)NC(=O)CN)C(=O)NCC(=O)N[C@@H](CCCCN)C(=O)N[C@@H](CCCCN)C(=O)N[C@H](C(=O)N[C@@H](CCC(=O)O)C(=O)N[C@@H](CCCNC(=N)N)C(=O)N[C@H](C(=O)NCC(=O)N[C@@H](CCC(N)=O)C(=O)N[C@@H](Cc1c[nH]cn1)C(=O)N[C@H](C(=O)N[C@@H](CCCNC(=N)N)C(=O)N[C@@H](CC(=O)O)C(=O)N[C@@H](C)C(=O)N[C@H](C(=O)N[C@H](C(=O)N[C@@H](CCC(N)=O)C(=O)N[C@H](C(=O)N[C@H](C(=O)NCC(=O)N[C@H](C(=O)N[C@@H](C)C(=O)N[C@@H](CCC(N)=O)C(=O)N[C@@H](CCC(N)=O)C(=O)N[C@@H](C)C(=O)N[C@@H](C)C(=O)N[C@@H](CC(N)=O)C(=O)N[C@H](C(=O)N[C@@H](C)C(=O)N[C@@H](C)C(=O)N[C@H](C(=O)N[C@@H](CC(C)C)C(=O)N[C@@H](CCCCN)C(N)=O)[C@@H](C)O)C(C)C)C(C)C)[C@@H](C)CC)[C@@H](C)O)[C@@H](C)CC)[C@@H](C)O)[C@@H](C)O)C(C)C)[C@@H](C)CC; target or system = Pseudomonas aeruginosa; system = ATCC 27853, CAMHB with 10% mouse serum; conditions = 150 mM NaCl; quantity = MIC; result = 64 µg/mL (≈ 15.2 µM)
SMILES = CC(C)C[C@@H]1NC(=O)[C@H](CCCNC(=N)N)NC(=O)[C@@H]2CCCN2C(=O)[C@@H]2CSSC[C@H](NC(=O)CNC(=O)[C@@H]3CCCN3C(=O)[C@H](CCCCN)NC(=O)[C@H](CC(=O)O)NC(=O)[C@@H](NC(=O)CN)C(C)C)C(=O)N[C@@H](CCCNC(=N)N)C(=O)N[C@@H](Cc3ccc(O)cc3)C(=O)N[C@@H](CC(C)C)C(=O)N[C@@H](Cc3ccccc3)C(=O)NCC(=O)NCC(=O)N[C@H]3CSSC[C@H](NC(=O)CNC1=O)C(=O)N[C@@H](CCCCN)C(=O)NCC(=O)N[C@@H](CCCCN)C(=O)NCC(=O)N[C@@H](Cc1c[nH]cn1)C(=O)N[C@@H](CC(=O)O)C(=O)N[C@@H](Cc1ccc(O)cc1)C(=O)N[C@H](C(=O)N[C@@H](C)C(=O)N[C@@H](Cc1c[nH]c4ccccc14)C(=O)N[C@@H](CC(=O)O)C(=O)NCC(=O)N[C@H](C(=O)N[C@@H](Cc1ccccc1)C(=O)N[C@@H](CO)C(=O)N[C@@H](CC(=O)O)C(=O)O)[C@@H](C)O)CSSC[C@H](NC(=O)[C@H](CC(=O)O)NC(=O)[C@H](CC(=O)O)NC(=O)[C@H](CC(=O)O)NC(=O)[C@H](CO)NC(=O)[C@H](CCCCN)NC3=O)C(=O)N2; target or system = Sodium channel protein type 9 subunit alpha (SCN9A, Homo sapiens, UniProt Q15858); test = sodium current, automated patch clamp; system = HEK293; conditions = 1 µM, 50 ms depolarizing pulse; how to read = reference: compound over control; quantity = inactivation time constant ratio; result = 4.27 ± 0.51
SMILES = O=C(NC1CCN(c2ncnc3[nH]cnc23)CC1)c1cccc(NS(=O)(=O)c2ccc(C(F)(F)F)cc2)c1; target or system = monkeypox virus E1/E12; conditions = 0.01221 µM; quantity = inhibition; result = 15%
SMILES = COc1ccc(-c2cnnn2-c2cc(OC)c(OC)c(OC)c2)cc1N; target or system = HeLa; test = cytotoxicity, nuclei counting; conditions = 24 h; quantity = EC50; result = 4.76 ± 0.5 nM
SMILES = CC(C)N1CCn2cc(C(=O)NCc3ccc(F)cc3F)c(=O)c(O)c2C1=O; target or system = human immunodeficiency virus 1; test = single-round vector infection; system = integrase S230N; quantity = EC50; result = 4.7 ± 0.4 nM
SMILES = CCCCCCCCCCCCCCCC(=O)N[C@@H](CCC(=O)NCCCC[C@H](NC(=O)[C@H](CC(=O)O)NC(=O)[C@H](CO)NC(=O)[C@@H](NC(=O)[C@H](Cc1ccccc1)NC(=O)[C@@H](NC(=O)CNC(=O)[C@H](CCC(N)=O)NC(=O)[C@H](C)NC(=O)[C@@H](Cc1ccc(O)cc1)NC(C)=O)[C@@H](C)O)[C@@H](C)O)C(=O)N[C@@H](CO)C(=O)N[C@@H](CCCCN)C(=O)N[C@@H](Cc1ccc(O)cc1)C(=O)N[C@@H](CC(C)C)C(=O)N[C@@H](CC(=O)O)C(=O)N[C@@H](CCC(=O)O)C(=O)N[C@@H](CCCNC(=N)N)C(=O)N[C@@H](C)C(=O)N[C@@H](C)C(=O)N[C@@H](CCC(N)=O)C(=O)N[C@@H](CC(=O)O)C(=O)N[C@@H](Cc1ccccc1)C(=O)N[C@H](C(=O)N[C@@H](CCC(N)=O)C(=O)N[C@@H](Cc1c[nH]c2ccccc12)C(=O)N[C@@H](CC(C)C)C(=O)N[C@@H](CC(C)C)C(=O)N[C@@H](CCC(=O)O)C(=O)NCC(=O)NCC(=O)N1CCC[C@H]1C(=O)N[C@@H](CO)C(=O)N[C@@H](CO)C(=O)NCC(=O)N[C@@H](C)C(=O)N1CCC[C@H]1C(=O)N1CCC[C@H]1C(=O)N1CCC[C@H]1C(=O)N[C@@H](CO)C(N)=O)C(C)C)C(=O)O; system = Wistar rat, male; conditions = intravenous, 0.02 mg/kg; quantity = central volume of distribution; result = 0.058 L/kg
SMILES = COCC(C)N1CCn2cc(C(=O)NCc3ccc(F)cc3F)c(=O)c(O)c2C1=O (stereo not shown); target or system = human immunodeficiency virus 1; test = single-round vector infection; system = integrase G118R; quantity = EC50; result = 22.1 ± 3.7 nM
SMILES = Cc1cn(C2CCC(OC(C(=O)O)P(=O)(O)O)C2)c(=O)[nH]c1=O (racemic); target or system = HIV-1 reverse transcriptase K70E; test = enzyme activity, inhibitor; conditions = with: poly(rA)·oligo(dT), [3H]dTTP; how to read = reference: mutant over wild type; quantity = fold resistance; result = 0.8 fold
SMILES = Cc1cc(/C=C/C#N)cc(C)c1Nc1nc(Nc2ccc(C#N)cc2)ncc1N; target or system = HIV-1; test = viral replication, single-round infection; system = RT mutant V106A/F227L; quantity = EC50; result = 1.3 ± 0.4 nM
SMILES = COCCn1ccn2cc(C(=O)NCc3ccc(F)cc3F)c(=O)c(O)c2c1=O; target or system = human immunodeficiency virus 1; test = single-round vector infection; system = integrase R263K; quantity = EC50; result = 3.9 ± 0.8 nM

Repeated from above:
SMILES = O=C(NC1CCN(c2ncnc3[nH]cnc23)CC1)c1cccc(NS(=O)(=O)c2ccc(C(F)(F)F)cc2)c1; target or system = monkeypox virus E1/E12; conditions = 0.01221 µM; quantity = inhibition; result = 15%
